Measurements collected from several papers.
Compare with care: the assays were run in different laboratories. ± marks the error that the study gave.
UniProt P50750, sequence (whole entry, looked up): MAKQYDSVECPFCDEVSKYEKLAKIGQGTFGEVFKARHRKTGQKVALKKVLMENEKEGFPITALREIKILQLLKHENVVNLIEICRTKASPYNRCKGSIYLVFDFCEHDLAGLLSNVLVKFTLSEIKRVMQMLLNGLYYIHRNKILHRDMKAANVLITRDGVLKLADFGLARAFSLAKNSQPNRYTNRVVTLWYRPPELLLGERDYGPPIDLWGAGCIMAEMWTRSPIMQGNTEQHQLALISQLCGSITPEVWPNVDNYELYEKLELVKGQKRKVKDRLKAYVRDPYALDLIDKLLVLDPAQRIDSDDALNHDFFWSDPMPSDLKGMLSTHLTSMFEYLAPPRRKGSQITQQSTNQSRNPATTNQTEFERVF

| Compound | tested on | assay | test system | conditions | how to read | quantity | result |
| --- | --- | --- | --- | --- | --- | --- | --- |
| O=[N+]([O-])c1ccc(N2CCC(NCCC(O)c3ccc(F)c4ccccc34)CC2)c(C(F)(F)F)c1 (stereo not drawn) | Salmonella typhimurium | SOS/umu test | TA1535/pSK1002 | 0.002 mg/mL, 4 h, with S9, lower range | – | survival | 100% |
| Cc1cc(C(=O)NC(C)(C)COc2cccc3c2C(N)=NS(=O)(=O)N3)cc(C)n1 | Salmonella typhimurium | Ames test, confirmatory | TA1535 | 5000 µg/plate, with: rat liver S9 | relative to: solvent control | revertant ratio | 0.8 |
| CCOC(=O)C1=C(CN2CCC[C@@H]2C(=O)Nc2ccc(B(O)O)cc2)NC(c2nccs2)=N[C@@H]1c1ccc(F)cc1Br | hepatitis B virus | – | HepDES19 | – | relative to: CC50 over EC50 | selectivity index | 11 |
| COc1cccc(-c2n[nH]c(SCc3ccccn3)n2)c1OC | Salmonella typhimurium | Ames test, plate incorporation | TA98 | 0.063 mg/plate, without S9 | – | revertant colonies per plate | 20 |
| CC(Nc1nc(N2CCN(CCN)CC2)nc2ccccc12)c1ccccc1 (stereo not drawn) | Vero-E6 | CellTiter-Glo ATP | – | concentration not given, 72 h, retest 8-point duplicates | relative to: DMSO 0%, hyamine -100%, more negative, more toxic | cytotoxicity efficacy | 0% |
| Fc1ccc(C2=CCNCC2)cc1 | Salmonella typhimurium | SOS response, SOS/umu test | TA1535/pSK1002, TGA medium | 0.001 mg/mL, 4 h, with: rat liver S9 | relative to: untreated | induction factor | 1.6 |
| CCOC(=O)C1=C(CN2CCC[C@@H]2C(=O)Nc2cccc(B(O)O)c2)NC(c2nccs2)=N[C@H]1c1ccc(F)cc1Br | hepatitis B virus | – | HePAD38 | – | relative to: CC50 over EC50 | selectivity index | 483 |
| C[C@H]1CN(c2n[nH]c3nc(N[C@H]4CC[C@H](NS(=O)(=O)CCC(F)(F)F)CC4)ncc23)CCO1 | CDK9 (Homo sapiens, UniProt P50750) | competitor, Kinobeads competition | HEK293, K562, placenta extract | – | – | Hill slope | 1 |
| CC(=O)N1CCC(C(=O)N2CCN3C(=O)c4cc(-c5ccccc5)ccc4NC(=O)C3C2)CC1 (stereo not drawn) | Salmonella typhimurium | – | TA100 | 1581 µg/plate, without S9 | – | revertants per plate | 102 |
| CCc1ccccc1N1CC(c2nc3ccccc3n2CCCCOc2ccccc2OC)CC1=O (stereo not drawn) | Vero-E6 | CellTiter-Glo ATP | – | 72 h, first round 5-point | relative to: DMSO 0%, hyamine -100%, more negative, more toxic | maximum response | -10.1% |
| [Cl-].[Cl-].[Pt+2].[Ru+2].c1ccc(-c2nc3ccccc3nc2-c2ccccn2)nc1.c1cnc2c(c1)ccc1cccnc12.c1cnc2c(c1)ccc1cccnc12 | Danio rerio | – | embryos | 15 µM, 48 h | – | survival rate | 90 ± 2.7% |
| OC(CCN1CC=C(c2ccc(F)cc2)CC1)c1ccc(F)c2ccccc12 (stereo not drawn) | Salmonella typhimurium | SOS/umu test | TA1535/pSK1002 | 0.002 mg/mL, 4 h, without S9, full range | – | survival | 106% |

For quick reference, copied from above:
| Compound | tested on | assay | test system | conditions | how to read | quantity | result |
| --- | --- | --- | --- | --- | --- | --- | --- |
| CCc1ccccc1N1CC(c2nc3ccccc3n2CCCCOc2ccccc2OC)CC1=O (stereo not drawn) | Vero-E6 | CellTiter-Glo ATP | – | 72 h, first round 5-point | relative to: DMSO 0%, hyamine -100%, more negative, more toxic | maximum response | -10.1% |
| CCOC(=O)C1=C(CN2CCC[C@@H]2C(=O)Nc2ccc(B(O)O)cc2)NC(c2nccs2)=N[C@@H]1c1ccc(F)cc1Br | hepatitis B virus | – | HepDES19 | – | relative to: CC50 over EC50 | selectivity index | 11 |
